Measurements collected from several papers.
Each numbered part is a random draw from the data of one study; scales do not carry over between parts.

Study 1 — technique: protein binding microarray; form: double-stranded DNA, one strand shown; matrix: in vitro; tested at: not given; reference: not given; direction: higher = stronger binding
Target: Histone acetyltransferase KAT6A, winged helix 2, GST fusion (KAT6A, Homo sapiens, UniProt Q92794, residues 85-181)
Setting: 8-mer, flanks averaged, mean of 2 arrays, mostly near background
Residues (chain): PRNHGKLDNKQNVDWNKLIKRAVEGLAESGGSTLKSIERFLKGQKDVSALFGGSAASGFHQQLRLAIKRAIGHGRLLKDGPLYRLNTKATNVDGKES
The E-score of `ATCGTCTC` is reported as -0.262.
The E-score of `CGTGAGCA` is reported as 0.0728.
The E-score of `CGGCACTA` is reported as 0.0263.
The E-score of `AAGACCGT` is reported as -0.286.
The E-score of `ACTTACTA` is reported as -0.26.
With `ATATAAGA` the E-score was -0.0417.
`ACCAGGCT` gave an E-score of -0.0877.
With `AGCACGCT` the E-score was -0.027.

Study 2 — technique: universal PBM; form: double-stranded DNA, one strand shown; matrix: in vitro; tested at: 600 nM; direction: higher = stronger binding
Target: Sal-like protein 4, full length isoform A (SALL4, Homo sapiens, UniProt Q9UJQ4, residues 1-1053)
UniProt Q9UJQ4, sequence (whole entry, looked up): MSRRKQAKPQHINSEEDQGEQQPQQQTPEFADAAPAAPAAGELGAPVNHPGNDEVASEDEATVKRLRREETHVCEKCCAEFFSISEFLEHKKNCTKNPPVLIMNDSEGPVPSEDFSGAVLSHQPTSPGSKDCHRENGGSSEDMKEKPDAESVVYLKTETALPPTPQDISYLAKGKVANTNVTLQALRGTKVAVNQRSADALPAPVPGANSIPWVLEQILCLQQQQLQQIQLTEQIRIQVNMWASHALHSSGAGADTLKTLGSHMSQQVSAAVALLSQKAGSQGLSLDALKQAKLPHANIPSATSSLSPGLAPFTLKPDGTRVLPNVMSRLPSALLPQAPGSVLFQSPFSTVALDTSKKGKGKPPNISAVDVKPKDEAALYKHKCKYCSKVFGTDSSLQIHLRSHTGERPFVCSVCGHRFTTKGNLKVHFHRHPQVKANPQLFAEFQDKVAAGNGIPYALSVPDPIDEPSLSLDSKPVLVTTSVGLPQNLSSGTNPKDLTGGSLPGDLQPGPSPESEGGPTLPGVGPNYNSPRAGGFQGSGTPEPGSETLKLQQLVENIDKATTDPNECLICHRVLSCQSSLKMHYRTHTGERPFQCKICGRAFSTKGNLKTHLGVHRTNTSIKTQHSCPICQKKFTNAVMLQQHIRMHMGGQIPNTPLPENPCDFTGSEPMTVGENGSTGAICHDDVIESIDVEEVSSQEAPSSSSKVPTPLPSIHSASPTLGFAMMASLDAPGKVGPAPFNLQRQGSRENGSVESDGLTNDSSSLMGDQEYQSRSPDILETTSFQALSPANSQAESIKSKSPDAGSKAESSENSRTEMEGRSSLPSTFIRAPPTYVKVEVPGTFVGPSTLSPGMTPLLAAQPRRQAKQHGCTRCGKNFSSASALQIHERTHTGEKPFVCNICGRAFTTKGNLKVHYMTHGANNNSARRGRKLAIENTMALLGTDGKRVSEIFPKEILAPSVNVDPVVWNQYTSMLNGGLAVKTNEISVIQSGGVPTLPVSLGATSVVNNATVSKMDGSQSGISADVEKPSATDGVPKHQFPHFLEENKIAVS
Setting: 8-mer, flanks averaged, mean of replicates
The E-score of `AAGTTGGT` is reported as 0.0551.
The E-score of `CCCACACA` is reported as -0.171.
With `GTAAATAC` the E-score was 0.167.
The E-score of `ATCACTGA` is reported as 0.121.

Study 3 — technique: RNA Bind-n-Seq; form: RNA; matrix: in vitro; tested at: 200 nM; setting: whole 134-nt RNA, ends assumed; added: 150 mM KCl; reference: input library; direction: higher = stronger binding
Target: Fragile X messenger ribonucleoprotein 1, C-terminal low-complexity region (Fmr1, Mus musculus, UniProt P35922)
For `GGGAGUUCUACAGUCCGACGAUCGUCCUGUGCUACACAUCGUAUGUACCGAAUCGGCCCCCCGGCCCCCCGGCCCCCCGGGGAAAGUAUUAUGUUACGCCGUUCGGAUCUGCAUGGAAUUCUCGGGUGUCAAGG`, the log2 enrichment was 0.0558.
For `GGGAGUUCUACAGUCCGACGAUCCAAGUCCUGUGCUACACAUCGUAUGUACCGAAUCGGAGGUUUUUUUGGAAAAAGGAAAGUAUUAUGUUACGCCGUUCGGAUCUGCACUUCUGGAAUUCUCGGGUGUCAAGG`, the log2 enrichment was -0.824.
`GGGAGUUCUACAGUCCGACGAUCUGGGAGGUGGAUUUUGUUUAUUUUUUUAGCUCAUUUCCAGGGGUGGGAAUUUUUUUUUAAUAUGUGUCAUGAAUAAAGUUGUAUUUGAAAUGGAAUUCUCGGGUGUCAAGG` gave a log2 enrichment of -0.00805.
With `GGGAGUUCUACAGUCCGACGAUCUGGCCCUGGUGGCAUGCGGGGAGGAAGAGGUGGCCUCAUGGAUCGUGGUGGUCCCGGUGGAAUGUUCAGAGGUGGCCGUGGUGGAGACAUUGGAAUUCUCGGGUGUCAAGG` the log2 enrichment was 0.139.
The log2 enrichment of `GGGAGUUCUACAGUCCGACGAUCACCAUGCAGGUGGGCAUCUUUGGGAAGUGGGGCAAGGGGGGGAUAAAAAGGGGGGUAACACUUUGGGAACAGGUGGUCCCAGGUCGUUUCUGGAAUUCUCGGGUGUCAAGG` is reported as 0.303.
`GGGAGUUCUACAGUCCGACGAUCUAACUUUAGAGGAGGAUCUGAUGGAUAUGGCAGUGGACGUGGAUUUGGGGAUGGCUAUAAUGGGUAUGGAGGAGGACCUGGAGGUGGCUAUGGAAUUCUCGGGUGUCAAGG` has a log2 enrichment of 0.253.
With `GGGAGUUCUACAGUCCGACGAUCAGUCCUGUGCUACACAUCGUAUGUACCGAAUCGGGAAAAAGGAAAAAGGAAAAAGGGAAAGUAUUAUGUUACGCCGUUCGGAUCUGCACUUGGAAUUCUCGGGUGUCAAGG` the log2 enrichment was -0.591.

Further values, each from its own experiment
`PhoQ, residues 284 288 289 292 302 303 SMYGEC` has a fold induction of 12.7 (PhoP, residues 12 14 15 18 19 SFCSL (Escherichia coli, UniProt P23836); Sort-seq, measured: YFP reporter; E. coli; PhoQ-PhoP variant library, added: 10 µM Mg2+; reference: high Mg2+ state, higher = stronger signaling).
